Results gathered from unrelated publications.
Lines come from different studies, so protocols differ. Numbers after ± are the reported error.

| Compound | test | test system | conditions | scale | quantity | value |
| --- | --- | --- | --- | --- | --- | --- |
| CO[C@H]1C[C@@H]2CC[C@@H](C)[C@@](O)(O2)C(=O)C(=O)N2CCCC[C@H]2C(=O)O[C@H]([C@H](C)C[C@@H]2CC[C@@H](OC(=O)NCCOCCOCCOCCOCCOCCOCCOCCOCCC(=O)N3CCc4cc(Cn5nc(-c6ccc7oc(N)nc7c6)c6c(N)ncnc65)ccc4C3)[C@H](OC)C2)C[C@@H](O)[C@H](C)/C=C(\C)[C@@H](O)[C@@H](OC)C(=O)[C@H](C)C[C@H](C)/C=C/C=C/C=C/1C | – | patients with advanced solid tumours | intravenous, 16 mg weekly, any grade | – | decreased appetite leading to dose reduction | 25% |
| C[C@]1(CO)Cc2ncn(-c3ccc(C#N)c(Cl)c3)c2C(=O)O1 | – | human, plasma | 10 mg single dose, geometric mean | – | Cmax | 416 nM |
| C[C@@H]1NC(=O)[C@H](CCCCNC(=O)CO/N=C/C(=O)NCCCC[C@@H]2NC(=O)[C@@H](Cc3ccccc3)NC(=O)[C@H](CC(=O)O)NC(=O)CNC(=O)[C@H](CCCNC(=N)N)NC2=O)NC(=O)CNC(=O)[C@@H]2CCCN2C(=O)[C@H](CCCCNC(=O)CO/N=C/C(=O)NCCCC[C@@H]2NC(=O)[C@@H](Cc3ccccc3)NC(=O)[C@H](CC(=O)O)NC(=O)CNC(=O)[C@H](CCCNC(=N)N)NC2=O)NC(=O)[C@H](CCCCNC(=O)CCNC(=O)CCNC(=O)CCNC(=O)[C@H](CCCCN)NC(=O)[C@H](Cc2ccccc2)NC(=O)CNC(=O)CN2CCCNCCNCCCNCC2)NC(=O)[C@H](CCCCNC(=O)CO/N=C/C(=O)NCCCC[C@@H]2NC(=O)[C@@H](Cc3ccccc3)NC(=O)[C@H](CC(=O)O)NC(=O)CNC(=O)[C@H](CCCNC(=N)N)NC2=O)NC(=O)CNC(=O)[C@@H]2CCCN2C(=O)[C@H](CCCCNC(=O)CO/N=C/C(=O)NCCCC[C@@H]2NC(=O)[C@@H](Cc3ccccc3)NC(=O)[C@H](CC(=O)O)NC(=O)CNC(=O)[C@H](CCCNC(=N)N)NC2=O)NC1=O [copper-64 labelled] | PET imaging | mouse, U-87 MG tumour xenograft, liver | intravenous, 24 h | – | tissue uptake | 14.5 ± 0.51 %ID/g |
| NCCCC[C@@H]1NC(=O)[C@@H](Cc2c[nH]c3ccccc23)NC(=O)[C@H](c2ccccc2)NC(=O)[C@@H]2C[C@@H](OC(=O)NCCN)CN2C(=O)[C@H](Cc2ccccc2)NC(=O)[C@H](Cc2ccc(OCc3ccccc3)cc2)NC1=O | – | healthy volunteers, male | 600 µg twice daily, 8.0 h, post hoc | – | placebo-corrected QTcF change | 3.9 ms |
| CCS(=O)(=O)Nc1ccc(Oc2ccc(F)cc2F)c(-c2cn(C)c(=O)c3[nH]ccc23)c1 | fatal fungal sepsis | human, relapsed/refractory AML | oral, dose not given | – | treatment-emergent adverse events | 5% |
| CC(C)[C@@H]1NC(=O)CNC(=O)[C@H](CC(N)=O)NC(=O)[C@H](CCCNC(=N)N)NC(=O)[C@H](Cc2ccc(O)cc2)NC(=O)[C@H](C(C)C)NC(=O)[C@@H](NC(=O)[C@@H](NC(=O)[C@H](CC(N)=O)NC(=O)[C@H](Cc2c[nH]c3ccccc23)NC(=O)[C@H](C)NC(=O)[C@H](Cc2ccccc2)NC(=O)CN)C(C)C)CSSC[C@@H](C(=O)N[C@@H](Cc2cnc[nH]2)C(=O)N[C@@H](CCCNC(=N)N)C(=O)N[C@@H](CCCNC(=N)N)C(=O)N[C@@H](C)C(=O)N[C@@H](CC(N)=O)C(N)=O)NC(=O)[C@H](C(C)C)NC(=O)[C@H](CCCNC(=N)N)NC1=O | – | ICR mouse | ip, 5 mg/kg | direction not given | tremor score | 0 |
| C[C@@H](NC(=O)N1C(=O)[C@H](Cc2ccnc(N)c2)[C@H]1C(=O)O)C1CCCCC1 | – | healthy adult Chinese volunteers | continuous intravenous infusion, 0.3 mg/kg/h, 5-day infusion, CTCAE 5.0 grading | – | incidence of albuminuria | 0% |
| COc1ccnc(C(=O)N[C@H]2COC(=O)[C@H](Cc3ccccc3)[C@@H](OC(=O)C(C)C)[C@H](C)OC2=O)c1OCOC(=O)C(C)C | carcinogenicity | rat | 2 year, highest dose tested | – | NOAEL | 1010 mg/kg/day |
| CC(=O)c1c(C)c2cnc(Nc3ccc(C4CCN(CCS(C)(=O)=O)CC4)cn3)nc2n(C2CCCC2)c1=O | – | human patients, plasma | oral, 100 mg twice daily, day 21 multiple doses, together with: fulvestrant | – | Tmax | 1.88 h |
| Cn1cc(-c2nc(N[C@@H]3CCCC[C@@H]3N)c(F)c3c2C(=O)NC3)cn1 | measured: Esophageal haemorrhage | patients with relapsed or refractory AML | oral, dose not given, all doses | – | hemorrhagic adverse events | 1 number of patients |
| O=S(=O)(Nc1ccccc1)c1ccc(NC(=S)Nc2ccccc2)cc1 | measured: CREA | male mouse, blood | oral, 20 mg/kg daily, 14 days | – | blood chemistry level | 0.16 mg/dL |
| CCCSc1ccc2nc(NC(=O)OC)[nH]c2c1 | – | mouse, blood | oral, 50 mg/kg, tolerability, mean | – | mean platelet volume | 5.86 fL |
| CC(C)(O)c1cc(Nc2cc(Oc3cn(C4CC4)nc3C3CCOCC3)ccn2)ccn1 | – | grade 4 glioma expansion cohort | oral, 50 mg twice daily | – | AST increased, any grade | 5% |
| CCc1ccc(CC/C=C/c2ccc3c(c2)C(=O)CC3)cc1 | – | Sprague-Dawley rat, male | oral, 120 mg/kg/day, 14 days | – | LDH serum activity | 505 U/L |
| COc1cc2c(Oc3ccc4[nH]c(C)cc4c3F)ccnc2cc1OCC1(N)CC1 | – | paediatric refractory sarcoma patients | 12 mg | – | ALT elevation incidence | 54.5% |
| COc1cccc([C@]2(C)CCN(C[C@@H](NC(=O)[C@H]3Cc4ccc(O)cc4CN3)C(C)C)C[C@@H]2C)c1 | – | rat, brain | intraperitoneal, 5 mg/kg | – | AUCtotal | 1850 ng·h/g |
| CC(C)C(=O)OC[C@H]1O[C@@H](n2ccc(NO)nc2=O)[C@H](O)[C@@H]1O | – | rat amniotic fluid dialysate | 5 ng/mL, 6 h, 10 °C, low QC concentration, together with: NHC 25 ng/mL | – | autosampler stability | 96 ± 2.68% |
| O=C(Nc1ccccc1)C1CCN(C(=O)Oc2cccnc2)CC1 | measured: metabolism and nutrition disorders | healthy women | oral, 20 mg, 7 days | – | subjects with adverse event | 0% |
| CCC[C@@](N)(CO)CCc1ccc(OCCCCCC(C)C)cc1 | – | male hound dog, plasma | oral, 20 mg/kg, capsule, fasted, median | – | Tmax | 6 h |
| C[C@H](O)C(=O)C1=Nc2c(nc(N)[nH]c2=O)NC1 | – | healthy human volunteers | oral, 20 mg/kg, monotherapy | relative to: subjects | fatal TEAE incidence | 0% |
| Cn1ncc(-c2nc(N[C@H]3CC[C@H](N)CC3)ncc2Cl)c1CC1CC1 | phase I dose escalation | human patients | dose not given, treatment-related grade 3 or higher | – | related adverse event incidence | 19.4% |
| C[C@@H]1OC(=O)NN=C1c1ccc(-c2ccc(F)cc2)c(C(F)(F)F)c1 | phase I trial, measured: Pneumonitis worst grade 3 | human patients | 5 mg once daily | – | patients with adverse event | 0% |
| O=C1Nc2cc3[nH]nc(-c4ccncc4)c3cc2CN1Cc1ccccc1 | CTCAE v4.03 | advanced solid tumour patients | intravenous, 4.8 mg/kg | – | patients with ≥1 TEAE | 100% |
| Cc1cn([C@H]2O[C@@H](CO[P@@](=O)(N[C@@H](C)C(=O)OC(C)C)Oc3ccccc3)[C@H](O)[C@H]2F)c(=O)[nH]c1=O | measured: Inflammation | human | 25 mg | – | patients with TEAE | 0% |
| O.O.O.O.O.O.[Cl-].[Cl-].[Co+2] | – | rat female, urine | oral, 10 mg/kg single, day 3 | – | cobalt in urine | 247 µg/L |
